# Published values pooled from the literature.
# Protocols differ between the studies behind these lines. ± marks the error that the study gave.
# SCN10A: Sodium channel protein type 10 subunit alpha (SCN10A, Homo sapiens, UniProt Q9Y5Y9)
# UniProt Q9Y5Y9, sequence (whole entry, looked up): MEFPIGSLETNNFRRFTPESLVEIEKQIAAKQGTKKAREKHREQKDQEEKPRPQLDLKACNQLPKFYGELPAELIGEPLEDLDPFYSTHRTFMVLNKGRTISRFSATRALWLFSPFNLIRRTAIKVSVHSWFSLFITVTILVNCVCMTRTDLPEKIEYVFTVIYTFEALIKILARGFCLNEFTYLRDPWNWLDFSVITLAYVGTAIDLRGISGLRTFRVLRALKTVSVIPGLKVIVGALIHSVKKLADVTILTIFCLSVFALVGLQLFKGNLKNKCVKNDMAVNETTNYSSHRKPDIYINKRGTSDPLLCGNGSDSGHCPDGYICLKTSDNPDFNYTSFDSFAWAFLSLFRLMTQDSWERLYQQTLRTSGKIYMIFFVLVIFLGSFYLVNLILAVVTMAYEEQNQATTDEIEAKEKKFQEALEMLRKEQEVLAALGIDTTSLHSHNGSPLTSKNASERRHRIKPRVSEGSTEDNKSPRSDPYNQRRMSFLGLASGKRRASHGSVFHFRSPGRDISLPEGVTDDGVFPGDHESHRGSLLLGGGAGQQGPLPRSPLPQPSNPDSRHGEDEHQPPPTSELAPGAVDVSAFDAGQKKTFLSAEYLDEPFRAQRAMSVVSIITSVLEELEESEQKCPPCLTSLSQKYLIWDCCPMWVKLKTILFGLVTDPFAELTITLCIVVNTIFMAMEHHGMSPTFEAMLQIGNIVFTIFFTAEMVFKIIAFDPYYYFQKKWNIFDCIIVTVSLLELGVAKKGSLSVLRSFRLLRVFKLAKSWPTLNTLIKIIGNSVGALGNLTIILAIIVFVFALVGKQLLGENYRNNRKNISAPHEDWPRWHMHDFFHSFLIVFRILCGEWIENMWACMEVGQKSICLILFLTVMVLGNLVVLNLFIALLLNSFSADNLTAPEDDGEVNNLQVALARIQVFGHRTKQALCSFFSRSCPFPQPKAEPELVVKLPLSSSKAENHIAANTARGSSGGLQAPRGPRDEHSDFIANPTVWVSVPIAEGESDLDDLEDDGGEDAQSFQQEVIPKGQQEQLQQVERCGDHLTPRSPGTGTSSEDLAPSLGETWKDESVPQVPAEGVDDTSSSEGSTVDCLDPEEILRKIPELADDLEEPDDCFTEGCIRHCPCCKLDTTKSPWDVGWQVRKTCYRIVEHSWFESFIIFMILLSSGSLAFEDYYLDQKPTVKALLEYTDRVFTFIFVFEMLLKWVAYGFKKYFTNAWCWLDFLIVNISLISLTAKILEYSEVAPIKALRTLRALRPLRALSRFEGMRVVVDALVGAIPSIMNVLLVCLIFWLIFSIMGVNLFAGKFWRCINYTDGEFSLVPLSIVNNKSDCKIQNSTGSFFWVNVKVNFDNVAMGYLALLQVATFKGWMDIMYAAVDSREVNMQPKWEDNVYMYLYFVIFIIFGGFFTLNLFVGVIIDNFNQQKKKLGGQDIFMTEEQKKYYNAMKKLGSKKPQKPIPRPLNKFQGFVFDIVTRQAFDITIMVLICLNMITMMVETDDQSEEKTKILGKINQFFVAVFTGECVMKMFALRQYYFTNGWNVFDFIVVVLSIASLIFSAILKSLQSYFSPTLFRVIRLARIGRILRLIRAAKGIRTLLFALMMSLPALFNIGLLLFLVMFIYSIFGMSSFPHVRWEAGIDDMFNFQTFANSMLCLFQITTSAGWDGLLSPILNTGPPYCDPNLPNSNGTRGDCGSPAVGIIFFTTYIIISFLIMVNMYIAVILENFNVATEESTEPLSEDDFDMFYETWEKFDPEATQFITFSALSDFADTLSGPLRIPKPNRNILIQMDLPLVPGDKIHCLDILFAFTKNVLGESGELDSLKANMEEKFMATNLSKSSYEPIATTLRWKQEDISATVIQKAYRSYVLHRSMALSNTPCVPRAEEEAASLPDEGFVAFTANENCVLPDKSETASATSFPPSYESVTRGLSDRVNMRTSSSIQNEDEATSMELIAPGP
# Aldo-keto reductase family 1 member B1: Aldo-keto reductase family 1 member B1 (Bos taurus, UniProt P16116)
# Genome polyprotein NS2B-NS3 protease: Genome polyprotein, NS2B-NS3 protease (Dengue virus type 2, UniProt P14340)
# PPO3: PPO3 (Agaricus bisporus, UniProt C7FF04)
# UniProt C7FF04, sequence (whole entry, looked up): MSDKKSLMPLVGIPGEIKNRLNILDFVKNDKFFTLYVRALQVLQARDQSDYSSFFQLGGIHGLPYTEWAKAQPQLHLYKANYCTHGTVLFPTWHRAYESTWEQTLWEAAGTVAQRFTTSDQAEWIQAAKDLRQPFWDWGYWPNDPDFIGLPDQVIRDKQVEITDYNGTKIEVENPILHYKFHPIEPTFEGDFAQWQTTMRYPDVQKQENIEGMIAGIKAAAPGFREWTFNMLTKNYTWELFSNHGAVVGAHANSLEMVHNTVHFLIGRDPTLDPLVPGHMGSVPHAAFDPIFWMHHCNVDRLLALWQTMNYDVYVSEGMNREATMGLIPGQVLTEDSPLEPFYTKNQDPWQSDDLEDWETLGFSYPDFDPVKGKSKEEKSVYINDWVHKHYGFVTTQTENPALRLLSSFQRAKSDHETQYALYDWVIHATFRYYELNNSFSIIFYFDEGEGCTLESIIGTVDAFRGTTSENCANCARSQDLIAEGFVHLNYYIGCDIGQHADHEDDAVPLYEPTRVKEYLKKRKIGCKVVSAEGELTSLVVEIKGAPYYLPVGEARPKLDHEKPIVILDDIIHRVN
# IDO1: Indoleamine 2,3-dioxygenase 1 (IDO1, Homo sapiens, UniProt P14902)
# UniProt P14902, sequence (whole entry, looked up): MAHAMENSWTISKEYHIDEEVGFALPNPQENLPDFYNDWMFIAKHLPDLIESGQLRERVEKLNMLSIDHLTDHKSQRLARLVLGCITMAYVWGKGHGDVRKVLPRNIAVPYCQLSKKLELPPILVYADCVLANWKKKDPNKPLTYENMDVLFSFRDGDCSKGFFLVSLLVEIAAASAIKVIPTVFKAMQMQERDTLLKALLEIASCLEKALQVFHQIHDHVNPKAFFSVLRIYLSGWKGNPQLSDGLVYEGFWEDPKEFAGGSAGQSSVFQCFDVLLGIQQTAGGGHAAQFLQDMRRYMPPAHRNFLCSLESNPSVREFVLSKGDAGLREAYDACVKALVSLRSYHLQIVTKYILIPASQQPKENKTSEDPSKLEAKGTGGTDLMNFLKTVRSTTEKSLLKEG
# UniProt P23141, sequence (whole entry, looked up): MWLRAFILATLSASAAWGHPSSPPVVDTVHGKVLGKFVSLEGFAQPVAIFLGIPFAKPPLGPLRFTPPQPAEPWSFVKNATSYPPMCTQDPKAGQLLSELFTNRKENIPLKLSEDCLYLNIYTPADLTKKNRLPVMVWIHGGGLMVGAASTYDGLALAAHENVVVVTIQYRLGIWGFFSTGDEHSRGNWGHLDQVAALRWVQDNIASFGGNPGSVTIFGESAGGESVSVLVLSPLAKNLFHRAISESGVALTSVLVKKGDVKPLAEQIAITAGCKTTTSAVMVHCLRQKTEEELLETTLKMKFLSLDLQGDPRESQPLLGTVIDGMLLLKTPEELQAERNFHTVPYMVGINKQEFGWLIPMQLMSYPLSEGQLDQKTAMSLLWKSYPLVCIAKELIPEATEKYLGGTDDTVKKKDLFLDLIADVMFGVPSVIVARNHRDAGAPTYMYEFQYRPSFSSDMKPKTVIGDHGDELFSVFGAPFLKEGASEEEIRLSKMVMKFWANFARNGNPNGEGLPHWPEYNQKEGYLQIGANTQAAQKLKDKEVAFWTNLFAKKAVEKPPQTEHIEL
# UniProt P34969, sequence (whole entry, looked up): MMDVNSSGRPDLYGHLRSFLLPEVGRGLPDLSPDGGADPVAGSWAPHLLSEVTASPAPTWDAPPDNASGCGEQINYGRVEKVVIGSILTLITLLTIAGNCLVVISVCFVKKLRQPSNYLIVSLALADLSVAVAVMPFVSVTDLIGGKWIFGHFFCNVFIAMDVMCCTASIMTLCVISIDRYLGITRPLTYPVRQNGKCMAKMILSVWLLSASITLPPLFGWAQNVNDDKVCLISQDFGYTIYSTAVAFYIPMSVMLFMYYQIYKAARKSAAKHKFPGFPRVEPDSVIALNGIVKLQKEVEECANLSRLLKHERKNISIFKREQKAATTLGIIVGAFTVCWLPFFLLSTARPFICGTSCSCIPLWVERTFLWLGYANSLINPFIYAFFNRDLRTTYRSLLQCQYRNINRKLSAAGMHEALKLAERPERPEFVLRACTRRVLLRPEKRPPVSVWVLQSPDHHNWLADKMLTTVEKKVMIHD
# UniProt P03952, sequence (whole entry, looked up): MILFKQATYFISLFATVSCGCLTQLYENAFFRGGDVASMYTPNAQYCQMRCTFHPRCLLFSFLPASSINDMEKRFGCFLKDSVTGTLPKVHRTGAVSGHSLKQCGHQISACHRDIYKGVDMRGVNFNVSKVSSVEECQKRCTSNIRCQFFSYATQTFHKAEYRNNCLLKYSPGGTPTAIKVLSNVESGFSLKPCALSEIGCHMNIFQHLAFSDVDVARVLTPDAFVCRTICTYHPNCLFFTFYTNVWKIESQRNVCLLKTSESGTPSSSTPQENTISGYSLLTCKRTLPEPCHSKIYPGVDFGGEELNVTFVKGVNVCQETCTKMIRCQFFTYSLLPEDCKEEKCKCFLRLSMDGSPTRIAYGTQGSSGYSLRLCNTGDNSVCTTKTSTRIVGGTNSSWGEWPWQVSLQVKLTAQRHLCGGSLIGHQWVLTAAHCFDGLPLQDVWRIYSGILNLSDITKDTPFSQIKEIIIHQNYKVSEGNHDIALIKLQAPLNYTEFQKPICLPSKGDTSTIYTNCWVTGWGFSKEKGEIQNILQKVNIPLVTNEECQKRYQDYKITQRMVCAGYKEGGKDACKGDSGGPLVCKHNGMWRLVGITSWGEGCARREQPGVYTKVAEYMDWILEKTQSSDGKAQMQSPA
# UniProt P08033, sequence (whole entry, looked up): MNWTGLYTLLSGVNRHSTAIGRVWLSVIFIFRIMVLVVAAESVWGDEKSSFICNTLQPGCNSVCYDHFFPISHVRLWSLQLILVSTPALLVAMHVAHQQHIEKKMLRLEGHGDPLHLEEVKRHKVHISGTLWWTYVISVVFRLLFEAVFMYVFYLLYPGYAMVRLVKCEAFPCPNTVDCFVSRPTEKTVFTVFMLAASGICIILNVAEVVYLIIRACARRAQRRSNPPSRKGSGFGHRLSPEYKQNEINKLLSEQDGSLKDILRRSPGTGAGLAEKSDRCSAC
Substance,target,assay,test system,setting,inhibition
O=C(N[C@@H](Cn1ccnc1)c1c(F)cc(-c2ccc(F)cc2)cc1F)c1ccc(-c2nnc(-c3ccccc3)o2)cc1,"Lanosterol 14-alpha-demethylase (Trypanosoma brucei brucei, UniProt Q385E8)","enzyme activity, inhibitor",,"equimolar to enzyme, 1 h, Trypanosoma brucei CYP51, added: obtusifoliol 50 µM",inhibited
COc1ccc(CN2CCN(C(c3ccc(F)cc3)c3ccc(F)cc3)CC2)c(OC)c1OC.Cl.Cl,SCN10A,"sodium influx, inhibitor, FLIPR",HEK293,"10 µM, added: deltamethrin 10 µM",91%
C/C(=N/N=c1/scc(-c2ccc(Cl)cc2)n1-c1ccc(F)cc1)c1ccc2c(c1)NC(=O)CO2,Aldo-keto reductase family 1 member B1,"enzyme activity, inhibitor, absorbance",,1 mM,35.2%
COc1ccc(C(=O)CN2CC(=Cc3ccc(F)cc3)C(=O)C(=Cc3ccc(F)cc3)C2)cc1,Genome polyprotein NS2B-NS3 protease,protease activity,dengue virus 2,50 µM,< 10%
NASC,"Glyceraldehyde-3-phosphate dehydrogenase (GAPDH, Homo sapiens, UniProt P04406)","protein aggregation, turbidity",peptide,"50 µM, 48 h, 37 °C",74.9 ± 3%
O=C1/C(=C/c2cc(Br)c(O)c(Br)c2)OC(=S)N1c1ccccc1,PPO3,"enzyme activity, inhibitor",,"25 µM, added: L-tyrosine",< 0%
C/C(=N/N=c1/scc(-c2ccc([N+](=O)[O-])cc2)n1-c1ccc(F)cc1)c1ccc2c(c1)OCCO2,Aldo-keto reductase family 1 member B1,"enzyme activity, inhibitor, absorbance",,1 mM,11%
COc1ccccc1C(Nc1nccs1)(c1ccccc1)c1ccccc1,"Gap junction beta-1 protein (Gjb1, Rattus norvegicus, UniProt P08033)","gap junction channel current, inhibitor, dual whole-cell voltage clamp",N2a,10 µM,< 20%
CCOc1cc(/C=C2\OC(=S)N(c3ccccc3)C2=O)ccc1O,PPO3,"enzyme activity, inhibitor",,"25 µM, added: L-tyrosine",< 0%
CC(C)(C)c1cnc(CSc2cnc(NC(=O)C3CCN(CC(=O)NCCOCCOCCOCCNc4cccc5c4C(=O)N(C4CCC(=O)NC4=O)C5=O)CC3)s2)o1 (centres unmarked),"Glycogen synthase kinase-3 alpha (GSK3A, Homo sapiens, UniProt P49840)","probe labeling, KiNativ live-cell profiling",MOLT-4,0.25 µM,41.3%
Nc1ncnc2c1ncn2[C@@H]1O[C@H](COP(=O)(O)OP(=O)(O)OP(=O)(O)O)[C@@H](O)[C@H]1O,"HerA helicase, with SIR2 (Escherichia coli, UniProt A0ABF7PQ25)",NADase activity,,"0.5 or 1 mM, 30 min, pH 8.0, 33 °C, added: ε-NAD+",~50%
CCCC[C@H](NC(=O)[C@@H](NC(=O)[C@H](CCCNC(=N)N)NC(=O)CN)[C@@H](C)O)C(=O)N[C@@H](CCC(N)=O)C(=O)N[C@H](C(=O)N[C@@H](C)C(=O)N[C@@H](CCCNC(=N)N)C(=O)N[C@@H](CCCCN)C(=O)N[C@@H](CO)C(=O)N[C@H](C(=O)NCC(=O)NCC(N)=O)[C@@H](C)O)[C@@H](C)O,"Histone-lysine N-methyltransferase SETD7 (SETD7, Homo sapiens, UniProt Q8WTS6)","enzyme activity, inhibitor, MALDI-TOF MS",,"50 µM, 10 min preincubation, 30 min, pH 8, 37 °C, enzyme 500 nM, added: H3 1-21 peptide, SAM 30 µM",~77%
C/C(=N/N=c1/scc(-c2ccc([N+](=O)[O-])cc2)n1Cc1ccccc1)c1ccc2c(c1)OCCO2,Aldo-keto reductase family 1 member B1,"enzyme activity, inhibitor, absorbance",,1 mM,14%
O=C(NCc1ccccc1)c1cnn(Cc2ccc(Cn3ccccc3=O)cc2)c1,"Plasma kallikrein (KLKB1, Homo sapiens, UniProt P03952)","enzyme activity, inhibitor",,1 µM,< 30%
N#Cc1ccc(-c2ccc(F)c(C(=O)NCc3nnc4ccc(C(F)(F)F)cn34)c2)cc1,IDO1,"kynurenine production, inhibitor, measured: L-kynurenine",A-375,"10 µM, 48 h, added: IFN-γ",24 ± 5%
O=C1/C(=C/c2ccccc2O)OC(=S)N1c1ccccc1,PPO3,"enzyme activity, inhibitor",,"25 µM, added: L-tyrosine",71%
CCN(CC)Cc1cc(Nc2ccnc3cc(Cl)ccc23)ccc1O.Cl.Cl.O.O,SCN10A,"sodium influx, inhibitor, FLIPR",HEK293,"10 µM, added: deltamethrin 10 µM",89.6%
COc1cc(C)c(C(=O)NCc2nnc3ccc4ccccc4n23)c(C)c1,IDO1,"kynurenine production, inhibitor, measured: L-kynurenine",A-375,"10 µM, 48 h, added: IFN-γ",> 50%
Cc1ccccc1C=C1CN(CC(=O)c2ccc(F)cc2)CC(=Cc2ccccc2C)C1=O,Genome polyprotein NS2B-NS3 protease,protease activity,dengue virus 2,50 µM,< 10%
COc1cc(F)c(C(=O)NCc2nnc3ccc(C(F)(F)F)cn23)c(F)c1,IDO1,"kynurenine production, inhibitor, measured: L-kynurenine",A-375,"10 µM, 48 h, added: IFN-γ",19 ± 3%
COc1ccc(-c2ccc3c(-c4ccc(F)cc4F)cn(C)c3n2)cc1,"Gag-Pol polyprotein, integrase (gag-pol, Human immunodeficiency virus type 1 group M subtype B, UniProt P04585)",strand transfer,wild type,10 µM,71.6%
O=C(NCc1nnc2ccc(C(F)(F)F)cn12)c1cc(Br)c(O)cc1O,IDO1,"kynurenine production, inhibitor, measured: L-kynurenine",A-375,"10 µM, 48 h, added: IFN-γ",32 ± 7%
CN(C1=CC(=O)C(=O)c2ccccc21)c1ccc(F)cc1,"Liver carboxylesterase 1 (CES1, Homo sapiens, UniProt P23141)","oseltamivir hydrolysis, inhibitor",U373 MG expressing CES1,"5 µM, 30 min, added: oseltamivir 20 µM",99%
CCCCCCCC(=O)NCCCC[C@H](NC(=O)[C@H](C)NC(=O)[C@H](CC(C)C)NC(=O)[C@H](CCC(N)=O)NC(=O)[C@H](CCCCN)NC(=O)[C@H](CCCNC(=N)N)NC(=O)[C@@H]1CCCN1C(=O)[C@H](C)NC(=O)[C@H](CCCCN)NC(=O)CNC(=O)CNC(=O)[C@@H](NC(=O)[C@@H]1CCC(=O)NCCCC[C@H](NC(=O)[C@H](CCSC)NC(=O)[C@@H](NC(=O)[C@H](CCCNC(=N)N)NC(=O)[C@H](C)N)[C@@H](C)O)C(=O)N[C@@H]([C@@H](C)O)C(=O)N[C@@H](C)C(=O)N[C@@H](CCCNC(=N)N)C(=O)N[C@@H](CCCCN)C(=O)N1)[C@@H](C)O)C(N)=O,"Lysine-specific histone demethylase 1A, with CoREST (KDM1A, Homo sapiens, UniProt O60341)","demethylase activity, inhibitor, fluorescence",,500 nM,86 ± 3.1%
Brc1ccc(-c2cs/c(=N/N=C\c3c[nH]c4ccccc34)n2C2CCCCC2)cc1,Aldo-keto reductase family 1 member B1,"enzyme activity, inhibitor, absorbance",,1 mM,< 50%
O=C(NCc1nnc2ccc(Cl)cn12)c1cccc2cn[nH]c12,IDO1,"kynurenine production, inhibitor, measured: L-kynurenine",A-375,"10 µM, 48 h, added: IFN-γ",23 ± 5%
COc1ccc(/C=C2\OC(=S)N(c3ccccc3)C2=O)cc1OC,PPO3,"enzyme activity, inhibitor",,25 µM,7.47%
O=C1NCN(c2ccccc2)C12CCN(CCCC(c1ccc(F)cc1)c1ccc(F)cc1)CC2,SCN10A,"sodium influx, inhibitor, FLIPR",HEK293,"10 µM, added: deltamethrin 10 µM",100%
Cc1nc2sccn2c(=O)c1CCN1CCC(=C(c2ccccc2)c2ccc(F)cc2)CC1,"5-hydroxytryptamine receptor 7 (HTR7, Homo sapiens, UniProt P34969)","agonist response, antagonist",,"10 µM, added: reference agonist at EC90",99.5%
